Published values pooled from the literature.
Numbered parts are unrelated; each lists some results of a single study.

Series 1
Target: Sal-like protein 4, full length isoform A (SALL4, Homo sapiens, UniProt Q9UJQ4, residues 1-1053)
UniProt Q9UJQ4, sequence (whole entry, looked up): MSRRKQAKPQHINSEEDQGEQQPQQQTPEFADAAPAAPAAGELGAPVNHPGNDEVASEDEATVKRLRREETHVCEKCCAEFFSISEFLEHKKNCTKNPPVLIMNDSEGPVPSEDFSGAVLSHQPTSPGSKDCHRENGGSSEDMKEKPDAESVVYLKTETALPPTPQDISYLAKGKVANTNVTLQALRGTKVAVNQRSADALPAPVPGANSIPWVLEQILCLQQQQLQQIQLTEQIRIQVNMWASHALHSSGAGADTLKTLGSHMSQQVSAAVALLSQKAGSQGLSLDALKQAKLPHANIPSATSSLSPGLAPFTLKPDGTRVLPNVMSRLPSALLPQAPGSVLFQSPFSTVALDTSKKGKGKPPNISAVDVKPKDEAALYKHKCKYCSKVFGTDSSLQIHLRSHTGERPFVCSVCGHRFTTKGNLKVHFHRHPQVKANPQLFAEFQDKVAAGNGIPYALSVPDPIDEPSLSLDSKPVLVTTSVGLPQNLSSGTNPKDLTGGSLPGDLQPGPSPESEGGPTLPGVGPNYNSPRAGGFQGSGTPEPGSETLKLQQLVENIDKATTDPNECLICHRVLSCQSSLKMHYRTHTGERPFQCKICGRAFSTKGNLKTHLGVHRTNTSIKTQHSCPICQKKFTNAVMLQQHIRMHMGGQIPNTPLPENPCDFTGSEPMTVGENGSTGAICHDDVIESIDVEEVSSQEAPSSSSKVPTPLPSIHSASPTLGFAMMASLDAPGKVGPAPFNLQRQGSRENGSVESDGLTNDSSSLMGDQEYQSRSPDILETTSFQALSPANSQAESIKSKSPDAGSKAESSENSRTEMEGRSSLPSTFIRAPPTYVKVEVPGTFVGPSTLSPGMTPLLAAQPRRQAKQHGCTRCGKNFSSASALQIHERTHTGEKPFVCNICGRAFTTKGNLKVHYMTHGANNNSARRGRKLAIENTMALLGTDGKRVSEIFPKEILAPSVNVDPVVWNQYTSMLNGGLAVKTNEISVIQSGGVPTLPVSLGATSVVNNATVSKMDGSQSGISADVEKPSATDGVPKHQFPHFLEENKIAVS
Method: universal PBM
Molecule type: double-stranded DNA, one strand shown
Medium: in vitro
Tested at: 600 nM
Setting: 8-mer, flanks averaged, mean of replicates
Direction: higher = stronger binding
| Strand | E-score |
| --- | --- |
| ATTAAAAG | 0.22 |
| CCCGATAG | -0.118 |
| CAGTCCCC | -0.336 |
| CCGAAAGG | 0.0386 |
| CCCGTGGA | -0.284 |
| CGCCGGAA | -0.236 |
| TCCACCAA | -0.0175 |

Series 2
Target: Interferon regulatory factor 7, full length, phosphomimetic (IRF7, Homo sapiens, UniProt Q92985, residues 1-503, S101K/S471D/S472D/S475D/S476D/S477D/S483D/S484D/S487D)
Method: protein-binding microarray
Molecule type: double-stranded DNA, one strand shown
Medium: in vitro
Tested at: 250 nM
Setting: 60-bp whole probe
Together with: salmon DNA 0.4 mg/ml
Baseline: random background probes
Direction: higher = stronger binding
All sequences stand within: GCCTAGCAC … GTCTTGATTCGCTTGACGCTGCTG
Target sequence (chain): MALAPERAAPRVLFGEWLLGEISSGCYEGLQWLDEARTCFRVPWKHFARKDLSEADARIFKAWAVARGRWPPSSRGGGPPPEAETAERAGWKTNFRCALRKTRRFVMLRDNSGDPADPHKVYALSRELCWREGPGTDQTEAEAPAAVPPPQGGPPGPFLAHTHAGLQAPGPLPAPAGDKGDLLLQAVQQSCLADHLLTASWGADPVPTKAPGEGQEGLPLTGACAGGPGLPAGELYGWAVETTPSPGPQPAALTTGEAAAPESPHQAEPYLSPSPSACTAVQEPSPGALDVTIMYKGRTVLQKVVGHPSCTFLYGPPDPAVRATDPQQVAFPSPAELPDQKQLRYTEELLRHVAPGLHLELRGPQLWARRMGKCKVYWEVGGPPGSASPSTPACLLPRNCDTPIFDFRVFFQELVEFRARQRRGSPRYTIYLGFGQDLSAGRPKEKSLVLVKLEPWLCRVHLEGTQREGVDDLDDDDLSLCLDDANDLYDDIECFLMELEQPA
| Strand | log fluorescence |
| --- | --- |
| GACGGTTTAGACACTGGGGACGTGCTA | -0.0133 z-score |
| TCATATTTGTTTCCATTACTGTGCTAG | 2.04 z-score |
| TTAGGTATCCTTCTCCTATAGTGCTAG | 0.645 z-score |
| GACGGACTGGACTATCGGGGCGTGCTA | -0.606 z-score |
| TTCTGATTGAATCTCCCATTGTGCTAG | -0.00876 z-score |

Series 3
Target: Prothrombin, mature alpha-thrombin (F2, Homo sapiens, UniProt P00734)
Method: aptamer microarray, sandwich
Molecule type: DNA with 2'F-ANA
Medium: in vitro
Tested at: 200 nM
Setting: whole 15-mer aptamer, many near background
Together with: Cy3 exosite-II aptamer, 400 nM
Direction: higher = stronger binding
Strand: GGTTGGTGTGGTTGG
| Modification | mean fluorescence intensity |
| --- | --- |
| 2'F-ANA at 2 6 9 10 12 15 | 146 a.u. |
| 2'F-ANA at 1 2 3 7 8 9 11 14 15 | 76.6 a.u. |
| 2'F-ANA at 1 2 4 6 8 10 12 13 | 78.1 a.u. |
| 2'F-ANA at 1 4 8 10 11 12 13 15 | 74.9 a.u. |
| 2'F-ANA at 1 8 9 14 | 130 a.u. |
| 2'F-ANA at 6 7 8 12 14 15 | 349 a.u. |
| 2'F-ANA at 4 5 7 9 11 | 62.4 a.u. |
| 2'F-ANA at 1 2 6 10 11 12 | 62.2 a.u. |

Further values, each from its own experiment
| Molecule | target | test | system | conditions | how to read | quantity | result |
| --- | --- | --- | --- | --- | --- | --- | --- |
| PhoQ, residues 284 288 289 292 302 303 TLMATV | PhoP, residues 12 14 15 18 19 GHCSL (Escherichia coli, UniProt P23836) | Sort-seq, measured: YFP reporter | E. coli | PhoQ-PhoP variant library, together with: 10 µM Mg2+ | baseline: high Mg2+ state, higher = stronger signaling | fold induction | 18.2 |

For quick reference, copied from above (series 1):
| Strand | E-score |
| --- | --- |
| CGCCGGAA | -0.236 |
| TCCACCAA | -0.0175 |
